Published values gathered from unrelated publications.
Numbered parts are unrelated; each lists some results of a single study.
UniProt Q8NEB9, sequence (whole entry, looked up): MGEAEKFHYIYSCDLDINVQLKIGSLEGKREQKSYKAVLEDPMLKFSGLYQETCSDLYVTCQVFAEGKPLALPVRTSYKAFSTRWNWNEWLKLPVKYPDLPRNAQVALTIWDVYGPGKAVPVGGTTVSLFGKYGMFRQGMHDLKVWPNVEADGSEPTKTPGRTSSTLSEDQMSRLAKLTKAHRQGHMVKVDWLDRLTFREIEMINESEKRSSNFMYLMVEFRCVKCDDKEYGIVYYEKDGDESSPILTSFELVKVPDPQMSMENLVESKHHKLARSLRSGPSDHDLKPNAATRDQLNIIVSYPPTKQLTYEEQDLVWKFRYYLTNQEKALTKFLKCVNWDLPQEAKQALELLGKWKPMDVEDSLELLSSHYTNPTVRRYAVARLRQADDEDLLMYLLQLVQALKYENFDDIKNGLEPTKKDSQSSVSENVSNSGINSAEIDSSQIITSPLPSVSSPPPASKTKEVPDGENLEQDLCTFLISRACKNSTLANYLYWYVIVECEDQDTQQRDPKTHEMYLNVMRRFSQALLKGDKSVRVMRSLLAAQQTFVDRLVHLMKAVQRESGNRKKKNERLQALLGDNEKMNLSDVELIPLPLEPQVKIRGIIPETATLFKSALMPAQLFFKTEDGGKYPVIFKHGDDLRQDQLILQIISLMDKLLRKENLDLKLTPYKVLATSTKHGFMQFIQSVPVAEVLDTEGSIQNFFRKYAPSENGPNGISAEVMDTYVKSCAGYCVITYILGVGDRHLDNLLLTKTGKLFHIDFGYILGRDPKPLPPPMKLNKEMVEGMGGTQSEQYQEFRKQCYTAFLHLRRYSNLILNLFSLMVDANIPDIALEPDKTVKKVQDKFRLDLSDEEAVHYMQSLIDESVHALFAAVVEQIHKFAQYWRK
UniProt P57059, sequence (whole entry, looked up): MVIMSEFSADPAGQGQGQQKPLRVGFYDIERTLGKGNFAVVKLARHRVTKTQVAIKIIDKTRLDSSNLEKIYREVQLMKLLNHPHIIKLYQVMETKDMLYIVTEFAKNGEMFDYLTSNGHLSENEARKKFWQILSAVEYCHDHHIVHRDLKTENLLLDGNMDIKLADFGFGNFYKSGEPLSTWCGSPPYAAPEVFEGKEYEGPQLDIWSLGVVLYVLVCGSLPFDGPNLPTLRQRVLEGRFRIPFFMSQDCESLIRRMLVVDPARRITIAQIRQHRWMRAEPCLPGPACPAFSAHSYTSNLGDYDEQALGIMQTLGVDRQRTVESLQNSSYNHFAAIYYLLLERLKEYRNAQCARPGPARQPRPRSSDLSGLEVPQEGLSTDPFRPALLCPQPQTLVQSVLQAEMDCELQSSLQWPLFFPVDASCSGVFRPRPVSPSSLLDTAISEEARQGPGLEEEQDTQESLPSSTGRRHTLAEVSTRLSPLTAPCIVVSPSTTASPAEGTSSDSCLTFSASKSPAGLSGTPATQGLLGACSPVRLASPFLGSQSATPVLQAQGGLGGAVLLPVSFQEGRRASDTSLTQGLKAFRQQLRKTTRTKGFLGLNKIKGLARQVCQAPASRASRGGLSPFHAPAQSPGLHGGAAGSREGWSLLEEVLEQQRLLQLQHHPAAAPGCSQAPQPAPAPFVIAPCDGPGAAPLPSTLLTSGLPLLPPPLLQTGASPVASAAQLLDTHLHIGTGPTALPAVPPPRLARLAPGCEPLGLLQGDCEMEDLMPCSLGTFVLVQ
UniProt P14616, sequence (whole entry, looked up): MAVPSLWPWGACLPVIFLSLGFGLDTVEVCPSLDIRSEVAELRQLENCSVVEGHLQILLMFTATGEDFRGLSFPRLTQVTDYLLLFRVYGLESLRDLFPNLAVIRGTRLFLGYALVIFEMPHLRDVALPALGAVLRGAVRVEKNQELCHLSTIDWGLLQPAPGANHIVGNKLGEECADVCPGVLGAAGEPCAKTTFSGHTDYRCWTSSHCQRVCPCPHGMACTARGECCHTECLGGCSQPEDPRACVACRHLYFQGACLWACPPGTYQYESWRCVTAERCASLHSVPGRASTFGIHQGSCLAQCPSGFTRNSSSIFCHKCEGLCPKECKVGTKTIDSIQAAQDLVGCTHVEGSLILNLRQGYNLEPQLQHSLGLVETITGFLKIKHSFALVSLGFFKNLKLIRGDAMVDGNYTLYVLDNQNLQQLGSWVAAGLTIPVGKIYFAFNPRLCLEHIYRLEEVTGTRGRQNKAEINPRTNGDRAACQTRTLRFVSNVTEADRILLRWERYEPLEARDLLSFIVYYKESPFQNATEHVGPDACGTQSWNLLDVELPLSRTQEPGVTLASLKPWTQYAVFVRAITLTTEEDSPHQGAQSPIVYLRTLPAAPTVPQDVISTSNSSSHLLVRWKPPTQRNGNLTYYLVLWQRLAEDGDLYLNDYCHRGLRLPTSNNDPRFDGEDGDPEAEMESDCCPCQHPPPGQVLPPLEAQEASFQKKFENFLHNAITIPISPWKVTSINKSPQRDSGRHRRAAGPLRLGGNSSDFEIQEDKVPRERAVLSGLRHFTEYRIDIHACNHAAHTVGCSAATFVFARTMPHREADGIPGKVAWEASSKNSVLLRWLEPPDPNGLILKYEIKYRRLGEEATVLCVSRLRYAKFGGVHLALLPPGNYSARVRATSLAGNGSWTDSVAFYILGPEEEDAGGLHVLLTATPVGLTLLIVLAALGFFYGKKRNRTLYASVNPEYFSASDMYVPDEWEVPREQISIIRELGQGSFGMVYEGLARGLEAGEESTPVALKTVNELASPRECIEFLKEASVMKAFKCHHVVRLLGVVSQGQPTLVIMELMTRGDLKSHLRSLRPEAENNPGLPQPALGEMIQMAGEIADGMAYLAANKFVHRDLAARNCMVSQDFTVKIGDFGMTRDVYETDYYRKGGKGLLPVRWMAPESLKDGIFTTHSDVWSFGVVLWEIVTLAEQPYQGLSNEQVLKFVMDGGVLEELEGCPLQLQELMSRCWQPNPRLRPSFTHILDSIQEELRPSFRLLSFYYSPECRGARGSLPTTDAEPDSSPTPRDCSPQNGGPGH
UniProt P49761, sequence (whole entry, looked up): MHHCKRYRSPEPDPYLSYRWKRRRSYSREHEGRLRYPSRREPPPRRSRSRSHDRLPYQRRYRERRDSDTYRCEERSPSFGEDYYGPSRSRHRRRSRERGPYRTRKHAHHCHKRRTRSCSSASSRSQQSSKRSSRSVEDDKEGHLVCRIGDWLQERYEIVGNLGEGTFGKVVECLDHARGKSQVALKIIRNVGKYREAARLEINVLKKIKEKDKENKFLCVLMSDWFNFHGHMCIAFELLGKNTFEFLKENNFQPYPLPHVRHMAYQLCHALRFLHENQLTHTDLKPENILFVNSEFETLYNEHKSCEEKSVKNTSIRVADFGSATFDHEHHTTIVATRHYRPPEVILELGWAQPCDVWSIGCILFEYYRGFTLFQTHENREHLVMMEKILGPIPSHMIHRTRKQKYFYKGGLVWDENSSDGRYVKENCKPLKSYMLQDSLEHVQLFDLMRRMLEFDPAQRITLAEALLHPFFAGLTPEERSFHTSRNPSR
UniProt Q96GD4, sequence (whole entry, looked up): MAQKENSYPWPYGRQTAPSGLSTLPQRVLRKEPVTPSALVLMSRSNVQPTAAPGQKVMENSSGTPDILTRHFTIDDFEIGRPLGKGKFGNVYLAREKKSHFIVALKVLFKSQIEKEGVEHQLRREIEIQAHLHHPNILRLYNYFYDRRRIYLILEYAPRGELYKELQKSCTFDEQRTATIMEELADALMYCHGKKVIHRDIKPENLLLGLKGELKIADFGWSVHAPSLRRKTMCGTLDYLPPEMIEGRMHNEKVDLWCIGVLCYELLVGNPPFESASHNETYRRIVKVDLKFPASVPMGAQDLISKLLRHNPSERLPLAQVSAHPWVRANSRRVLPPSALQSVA

Study 1
Structure (SMILES): CCN(CC)CCNC(=O)c1c(C)[nH]c(/C=C2\C(=O)Nc3ccc(Cl)cc32)c1C
Read-out: enzyme activity
Action: inhibitor
Tested at: 0.5 µM
Relative to: control
| target | remaining activity [%] |
| --- | --- |
| KDR (Homo sapiens, UniProt P35968) | 13.8 |
| MINK1 (Homo sapiens, UniProt Q8N4C8) | 4.4 |
| TXK (Homo sapiens, UniProt P42681) | 79.5 |
| PAK3 (Homo sapiens, UniProt O75914) | 93.8 |
| Cyclin-dependent kinase 9, with cyclin K (CDK9, Homo sapiens, UniProt P50750) | 40.1 |
| NEK3 (Homo sapiens, UniProt P51956) | 94 |
| MAPK14 (Homo sapiens, UniProt Q16539) | 103 |
| MET (Homo sapiens, UniProt P08581) | 77 |
| PRKG2 (Homo sapiens, UniProt Q13237) | 82.6 |
| CLK3 (Homo sapiens, UniProt P49761) | 101 |
| TLK2 (Homo sapiens, UniProt Q86UE8) | 79.6 |
| GRK4 (Homo sapiens, UniProt P32298) | 80.8 |
| MAPK11 (Homo sapiens, UniProt Q15759) | 100 |

Study 2
Target: His6 tag
Method: AlphaScreen counter screen
Tested at: concentration not given
| SMILES | inhibition |
| --- | --- |
| O=C(CSc1nnc(-c2ccccc2O)n1-c1ccccc1)Nc1nccs1 | -1.7% |
| O=C(CSc1ccc2nnc(-c3cccc(F)c3)n2n1)Nc1nccs1 | 6.9% |
| c1cncc(-c2cnc3c(N4CCOCC4)nccn23)c1 | 8% |
| Cc1c(CN2CCN(C(=O)[C@H](C)O)CC2)sc2c(N3CCOCC3)nc(-c3cnc(N)nc3)nc12 | 14.7% |
| O=C(NCc1cccnc1)c1n[nH]c2ccccc12 | -6.25% |

Study 3
Host: mouse
Medium: microsomes or S9
Tested at: 2 µM
Time: 0.5 h
| SMILES | remaining compound [%] |
| --- | --- |
| COc1cccc(C2CC(c3cccs3)=NN2S(C)(=O)=O)c1OC (stereo not shown) | 0.149 |
| O=c1c2c([nH]n1-c1nc3ccccc3[nH]1)CCCC2 | 51.1 |
| CCOC(=O)c1c(C)nc2c(c3c(n2Cc2ccc(OC)cc2)CCC3)c1-c1ccc2c3c(ccnc13)CCO2 | 0.152 |
| CCC(NC(=O)CCCc1ccc(Cl)cc1)c1ncnn1CC (stereo not shown) | 2.04 |
| CC(C)Cc1ccc(C(C)C(=O)NCCNC(=O)C2CCCNC2=O)cc1 (stereo not shown) | 27.2 |
| Nc1ccc2c(c1)C(N(Cc1ncc[nH]1)c1ccc(Cl)cc1)C(O)CCO2 (stereo not shown) | 1.3 |
| CCOC(=O)N1CCN(C(=O)c2ccc(NCCc3ccc(Cl)cc3)c(S(=O)(=O)Nc3ccc(OCC)cc3)c2)CC1 | 3.81 |

Study 4
Compound: O=C(Nc1ccc(Oc2ccc(F)cc2)cc1)N1CCc2ncccc2[C@H]1c1ccc(F)cc1
Tested at: 1 µM
| target | read-out | method | remaining binding |
| --- | --- | --- | --- |
| CDK14 (Homo sapiens, UniProt O94921) | cell-free assay | competition with immobilised ligand | 94% |
| MAP2K6 (Homo sapiens, UniProt P52564) | cell-free assay | competition with immobilised ligand | 100% |
| EIF2AK2 (Homo sapiens, UniProt P19525) | cell-free assay | competition with immobilised ligand | 100% |
| KIT (Homo sapiens, UniProt P10721, D816H) | cell-free assay | competition with immobilised ligand | 89% |
| FER (Homo sapiens, UniProt P16591) | cell-free assay | competition with immobilised ligand | 91% |
| Myosin-IIIa (MYO3A, Homo sapiens, UniProt Q8NEV4) | binding | competition with immobilised ligand | 100% |
| PAK1 (Homo sapiens, UniProt Q13153) | cell-free assay | competition with immobilised ligand | 82% |
| SIK1 (Homo sapiens, UniProt P57059) |  | competition binding | 99% |
| Aurora kinase B (AURKB, Homo sapiens, UniProt Q96GD4) | cell-free assay | competition with immobilised ligand | 89% |
| DSTYK (Homo sapiens, UniProt Q6XUX3) | cell-free assay | competition with immobilised ligand | 100% |
| INSRR (Homo sapiens, UniProt P14616) | cell-free assay | competition with immobilised ligand | 94% |
| PIK3C3 (Homo sapiens, UniProt Q8NEB9) | cell-free assay | competition with immobilised ligand | 92% |
| NEK7 (Homo sapiens, UniProt Q8TDX7) | cell-free assay | competition with immobilised ligand | 82% |
| FLT3 (Homo sapiens, UniProt P36888) | cell-free assay | competition with immobilised ligand | 77% |
| CDK11A (Homo sapiens, UniProt Q9UQ88) | binding | competition with immobilised ligand | 92% |

Some of these lines once more (study 4):
| target | read-out | method | remaining binding |
| --- | --- | --- | --- |
| Myosin-IIIa (MYO3A, Homo sapiens, UniProt Q8NEV4) | binding | competition with immobilised ligand | 100% |
| PAK1 (Homo sapiens, UniProt Q13153) | cell-free assay | competition with immobilised ligand | 82% |
| SIK1 (Homo sapiens, UniProt P57059) |  | competition binding | 99% |
| Aurora kinase B (AURKB, Homo sapiens, UniProt Q96GD4) | cell-free assay | competition with immobilised ligand | 89% |
